Assay results collected from several papers.
Protocols differ between the studies behind these lines. Values joined by “and” are separate records of one study, mostly repeats; a detail may differ. ± marks the error that the study gave.

For `CCCCOc1nc(N)c2[nH]c(=O)n(CCCN(CCCN3CCOCC3)Cc3cccc(CC(=O)OC)c3)c2n1`, the half-life was 0.00333 h (rat, whole blood; in vitro).
With `COC(=O)C(Cc1c[nH]cn1)NC(=O)C1(C)C(O)CCC2(C)C1CCC1(C)C2CC=C2C3C(C)C(C)CCC3(C)CCC21C` (stereo not shown) the half-life was 8.57 h (Wistar rat, colon homogenate; 90 µg/mL, 12 h, 37 °C).
For `CCC(CC)[C@H](NC(C)=O)[C@@H]1[C@H](O)[C@@H](C(=O)N[C@H](C(=O)O)[C@@H](C)CC)C[C@H]1NC(=N)N`, the half-life was 9.4 ± 0.1 h (male Sprague-Dawley rats, rat intestinal fluid; 100 µg/mL, pH 6.6, 37 °C).
`COc1cc(C=CC(=O)OCC2OC(OC3C(c4c(OC)cc5oc(-c6ccc(O)cc6)cc(=O)c5c4O)OC(CO)C(O)C3O)C(O)C(O)C2O)ccc1O` (stereo not shown) has a half-life of 1.39 ± 0.48 h (male Sprague-Dawley rat, PCPA-induced insomnia, plasma; oral, 6.8 g/kg).
For `N[C@H](COc1ccccc1C(F)(F)F)c1ccccc1`, the half-life was 6.5 h (male Sprague-Dawley rat; oral, 25 mg/kg).
`COC(=O)/C=C/C(=O)c1ccc(OC)cc1` gave a half-life of 7.21 ± 0.57 h (Sprague-Dawley rat, both sexes, plasma; oral, 200 mg/kg).
With `Cc1ccc(O)c2c3c(nn12)CCC(C)(NC(=O)c1ccc(-n2cnc4cc(C(=O)O)ccc42)cc1Cl)C3` (stereo not shown) the half-life was 0.38 h (rat).
The half-life of `Cn1cc(C(N)=O)c(NC2C3CC4CC2CC(O)(C4)C3)c2ccnc1-2` (stereo not shown) is reported as 15.1 h (Japanese adults, moderate hepatic impairment, plasma; oral, 150 mg single dose).
The half-life of `CN[C@@H]1[C@H](O)[C@H](NC)[C@H]2O[C@]3(O)[C@H](O[C@@H]2[C@H]1O)O[C@H](C)C[C@@]3(O)CNCc1ccc(Cl)cc1` is reported as 1.74 h (rat; intravenous, 10 mg/kg).
For `Cc1ccc(OCC(=O)O)cc1`, the half-life was 1.43 to 4.41 h (Sprague-Dawley rat, both sexes, plasma; oral, all doses and days, metabolite of dosed drug).
`CCC(CC)[C@H](NC(C)=O)[C@@H]1[C@H](O)[C@@H](C(=O)OCCOC(=O)[C@@H](N)C(C)C)C[C@H]1NC(=N)N` gave a half-life of 3.38 ± 0.25 h (male Sprague-Dawley rats, rat gastric fluid; 80 µg/mL, pH 1.3, 37 °C).
With `Ac-CSNLSTCXLGKLSQDLHRLQTYPKTDVGANAP-NH2 (N-acetyl, C-amide)` the half-life was 23.4 ± 2 h (ELISA; peptide, high-fat diet Sprague Dawley rats, plasma; subcutaneous, 4 nmol/kg).
With `Cc1noc(C)c1Cn1cc(N2C(=O)CN(Cc3cccc(O[C@@H]4O[C@H](C(=O)O)[C@@H](O)[C@H](O)[C@H]4O)c3)C2=O)cn1` the half-life was 4.2 h (rat Sprague-Dawley male, plasma; oral, 100 mg/kg of parent drug).
For `CN(C)C(=O)c1ccnc(N2Cc3cn(Cc4ccc(F)cc4F)nc3C2)n1`, the half-life was 4.2 h and 2.6 h (Sprague Dawley rat, brain; dose not given).
The half-life of `COc1cc2oc(-c3ccc(O)cc3)cc(=O)c2c(O)c1[C@@H]1O[C@H](CO)[C@@H](O)[C@H](O)[C@H]1O[C@@H]1O[C@H](CO)[C@@H](O)[C@H](O)[C@H]1O` is reported as 3.01 ± 0.9 h (male Sprague-Dawley rat, normal, plasma; oral, 6.8 g/kg).
The half-life of `Cn1cc(C(N)=O)c(NC2C3CC4CC2CC(OS(=O)(=O)O)(C4)C3)c2ccnc1-2` (stereo not shown) is reported as 14.1 h (Japanese adults, moderate hepatic impairment, plasma; oral, 150 mg single dose).
For `CC(C)C[C@@H]1NC(=O)[C@H](C(C)C)NC(=O)[C@H](CC(N)=O)NC(=O)[C@H](CO)NC(=O)[C@H](CO)NC(=O)[C@H](CC(=O)O)NC(=O)[C@H](CC(=O)O)NC(=O)[C@H](Cc2ccccc2)NC(=O)[C@H](Cc2ccc(O)cc2)NC(=O)[C@@H](N)CSSC[C@@H](C(=O)N[C@@H](CCCCN)C(=O)N[C@@H](CCCCN)C(=O)N[C@@H](Cc2ccc(O)cc2)C(=O)N[C@@H](CCCNC(=N)N)C(=O)N[C@@H](CO)C(=O)O)NC1=O`, the half-life was 1.17 h (Sprague-Dawley rat, male, whole blood; 0.1 mg/mL, 37 °C, in vitro stability).
`CCCCC/C=C/C=C/C(=O)NCC(C)C` has a half-life of 2.13 ± 0.63 h (rat, sham-operated, plasma; oral, 50 mg/kg).
`CN[C@@H]1[C@H](O)[C@H](NC)[C@H]2O[C@]3(O)[C@H](O[C@@H]2[C@H]1O)O[C@H](C)C[C@@]3(O)CNCc1ccc(OC(F)(F)F)cc1` gave a half-life of 1.99 h (rat; iv, 10 mg/kg).
`Cc1noc(C)c1Cn1cc(N2C(=O)CN(Cc3cccc(OS(=O)(=O)O)c3)C2=O)cn1` gave a half-life of 2.9 h (rat Sprague-Dawley male, plasma; oral, 10 mg/kg of parent drug).
`COc1c(O)cccc1-c1n[nH]c(SCc2ccccn2)n1` has a half-life of 0.69 h (Sprague-Dawley rat, male and female, plasma; oral, 100 mg/kg of parent drug).
`C=C(C)C(=O)Nc1ccc(-c2c(-c3ccc(Oc4nccc(C)n4)cc3)c3c(N)ncnc3n2C)cc1` gave a half-life of 0.37 h (Sprague-Dawley rat; intravenous, dose not given).

Some of these lines once more:
`CN[C@@H]1[C@H](O)[C@H](NC)[C@H]2O[C@]3(O)[C@H](O[C@@H]2[C@H]1O)O[C@H](C)C[C@@]3(O)CNCc1ccc(OC(F)(F)F)cc1` gave a half-life of 1.99 h (rat; iv, 10 mg/kg).
`C=C(C)C(=O)Nc1ccc(-c2c(-c3ccc(Oc4nccc(C)n4)cc3)c3c(N)ncnc3n2C)cc1` gave a half-life of 0.37 h (Sprague-Dawley rat; intravenous, dose not given).
